Experimental data of several laboratories.
Each line is one published result; not all experiments were run side by side. “And” joins repeats or separate records; there may be more than shown. Numbers after ± are the reported error.

Compound	test	test system	conditions	how to read	quantity	result
CCCC[C@H](NC(=O)COCCOCCNC(=O)CN1CCN(CC(=O)O)CCN(CC(=O)O)CC1)C(=O)N[C@H]1CC(=O)NCCCC[C@@H](C(N)=O)NC(=O)[C@H](Cc2c[nH]c3ccccc23)NC(=O)[C@H](CCCNC(=N)N)NC(=O)[C@@H](Cc2ccccc2)NC(=O)[C@H](Cc2c[nH]cn2)NC1=O [fluorine-18 labelled]		C57 mice, B16/F10 melanoma, urine	intravenous, 0.37 MBq, 1 h		urinary excretion	78.3 ± 3.19%
CC(=O)N([O-])CCCCCNC(=O)CCC(=O)N([O-])CCCCCNC(=O)CCC(=O)N([O-])CCCCCN.[89Zr+4]		mouse plasma	1 d, 37 °C		intact complex	97.8 ± 1%
COc1cccc(OC)c1-c1cc(C(=O)NC2(C(=O)O)C3CC4CC(C3)CC2C4)nn1-c1ccc(C(=O)N(C)CCCN(C)CCCN(C)C(=O)[C@H](CCCCNC(=O)[C@H](CC(C)C)NC(=O)C2OC2C(=O)O)NC(=O)CN2CCN(CC(=O)[O-])CCN(CC(=O)[O-])CCN(CC(=O)[O-])CC2)cc1C(C)C.[177Lu+3] (mixture of isomers)		mouse, HT-29 xenograft	24 h post injection, biodistribution	reference: tumour over liver uptake	tumour-to-liver ratio	4.95
[123I]c1ccc2nc(-c3ccc(-n4ccnn4)nc3)cn2c1		male Wistar rat, blood	intravenous, 4 MBq, 6 h		tracer uptake	0.103 %ID/g
O=C(NS(=O)(=O)c1cccs1)c1cc2ccccc2n1Cc1ccc(Br)c2ccccc12		KM mouse, chronic hyperuricaemia model	dose not given, day 19		body weight	31.5 g and 37.7 g and 35.3 g and 37.4 g and 35.7 g and 32.8 g
CN(C(=O)C(C)(C)c1cc(C(F)(F)F)cc(C(F)(F)F)c1)c1cnc(N2C[C@H]3COCCN3C[C@H]2CO)cc1-c1ccc(F)cc1CO		human, plasma	oral, 120 mg, geometric mean		AUC extrapolated	5.29%
CN1CCC[C@]1(C)/C=C/S(=O)(=O)NC(=O)Nc1c2c(cc3c1C(O)CC3)CCC2 (some centres unmarked)		human, plasma	oral, 50 mg twice daily of parent drug, day 1, metabolite of dosed drug		AUC(0-tau)	60100 ng·h/mL
CN[C@H](CC(C)C)C(=O)N[C@H]1C(=O)N[C@@H](CC(N)=O)C(=O)N[C@H]2CN[C@H]3C(=O)N[C@H](C(=O)N[C@H](C(=O)NCCCNC(=N)N)c4cc(O)cc(O)c4-c4cc3ccc4O)[C@H](O)c3ccc(c(Cl)c3)Oc3cc2cc(c3O[C@@H]2O[C@H](CO)[C@@H](O)[C@H](O)[C@H]2O[C@H]2C[C@](C)(NCc3ccc(-c4ccc(Cl)cc4)cc3)[C@H](O)[C@H](C)O2)Oc2ccc(cc2Cl)[C@H]1O		mouse	intravenous, 10 mg/kg		clearance	0.47 mL/min/kg
CCCC[C@H](OC(C)=O)c1ccccc1C(=O)O		beagle dog, both sexes, whole blood	intravenous, 1.5 mg/kg, day 7		MRT(0-inf)	2.8 h
CCCCN1C(=O)c2cccc3c(NCCCCCN4CCOCC4)ccc(c23)C1=O		chloroform			absorption maximum	428 nm
Cc1c(Cc2ccc(Cl)c(OC(C)C(=O)O)c2)c2ccc(C(=O)NC(C)c3cccc(C(C)(C)C)c3)cc2n1C (centres unmarked)	metabolic stability	mouse, liver microsomes			half-life	0.607 h
CCCCN1C(=O)c2cccc3c(NCCCCCCCCCCN4CCOCC4)ccc(c23)C1=O		DMF			absorption maximum	444 nm
O=C(Nc1cnccc1-c1ccc([18F])cc1)c1ccnc(NC(=O)C2CC2)c1	PET imaging	FVB/NJ mice, both sexes, brain	intravenous, 60 min post-injection		median SUV	0.16
Cc1nc(N)nc2c1C(=O)N[C@@H](c1ccc(F)cc1-c1cccc(OCC[18F])n1)C2	ex vivo biodistribution	C57BL/6 mice, intestines	intravenous, 30 min		uptake	12.6 ± 1.01 %ID
CN(CCNc1ccc2ncc(-c3ccc(C(N)=O)cc3)n2n1)C(=O)OC(C)(C)C		mouse, SNL model, brain	oral, 60 mg/kg, 120 min		drug concentration	77 nM
C=CC(=O)Nc1cc(Nc2nccc(-c3cn(C)c4ccccc34)n2)c(OC)cc1N(C)CCNC	storage stability	human plasma	5 h, -80 °C, low QC level		recovery	94.5%
COC(=O)[C@@]1(C(C)C)C=C(C(=O)Nc2cccc(C(=O)Nc3ccc(Nc4nccc(-c5cccnc5)n4)c(C)c3)c2)C(=O)CC1		rat, plasma	10 µM, 10 min		compound remaining	103%
O=C([O-])CN1CCN(CC(=O)[O-])CCN(CC(CCCc2ccccc2[N+](=O)[O-])N(CC(=O)[O-])CC(=O)[O-])CC1.[90Y+3] (centres unmarked)	HPLC	human serum	135 h, pH 7, 37 °C		intact radiolabelled complex	100%
CC[C@H](C)[C@H](NC(=O)[C@H](CCCCN)NC(C)=O)C(=O)N[C@@H](C)C(=O)N[C@@H](C)C(=O)N[C@@H](CC(C)C)C(=O)N[C@@H](CCCCN)C(=O)N[C@@H](CCC(=O)O)C(=O)N[C@@H](CCCCN)C(=O)N[C@H](C(=O)N[C@@H](C)C(=O)N[C@@H](C)C(=O)N[C@@H](CC(C)C)C(=O)N[C@@H](CCCCN)C(=O)N[C@@H](CCC(=O)O)C(=O)N[C@@H](CCCCN)C(=O)N[C@H](C(=O)N[C@H]1CSCc2ccc(cc2)CSC[C@@H](C(=O)NCC(=O)N[C@@H](Cc2c[nH]c3ccccc23)C(N)=O)NC(=O)[C@H](CCCCN)NC(=O)[C@H](CC(C)C)NC(=O)[C@H](C)NC1=O)[C@@H](C)CC)[C@@H](C)CC	circular dichroism thermal melting	PBS	pH 7.4, single peptide 50 µM total		melting temperature	26 °C
CC(C)[C@H](NC(=O)[C@H](Cc1c[nH]c2ccccc12)NC(=O)[C@H](CCCNC(=N)N)NC(=O)[C@H](CCCNC(=N)N)NC(=O)[C@@H](NC(=O)[C@@H](NC(=O)[C@H](CCCNC(=N)N)NC(=O)[C@@H](NC(=O)[C@@H](NC(=O)[C@H](CCCNC(=N)N)NC(=O)[C@H](CCCNC(=N)N)NC(=O)[C@@H](NC(=O)[C@H](Cc1c[nH]c2ccccc12)NC(=O)[C@H](CCCNC(=N)N)NC(=O)[C@H](CCCNC(=N)N)NC(=O)[C@@H](NC(=O)[C@H](CCCNC(=N)N)NC(=O)[C@H](CCCNC(=N)N)NC(=O)[C@@H](NC(=O)[C@H](Cc1c[nH]c2ccccc12)NC(=O)[C@H](CCCNC(=N)N)NC(=O)[C@@H](N)CCCNC(=N)N)C(C)C)C(C)C)C(C)C)C(C)C)C(C)C)C(C)C)C(C)C)C(=O)N[C@@H](CCCNC(=N)N)C(=O)N[C@@H](CCCNC(=N)N)C(=O)O		CD-1 mice	intravenous, 15 mg/kg, 6-24 h		urinary creatinine	7 mg/dL
Cc1c(Cc2ccc(Cl)c(O[C@@H](C)C(=O)O)c2)c2ccc(C(=O)N[C@@H](C)c3cc(F)cc(C(C)(C)C)c3)cc2n1C	metabolic stability	mouse, liver microsomes			half-life	0.867 h
[2H]C1([2H])CC[C@@H](C[C@@H](C#N)NC(=O)[C@@H]2[C@@H]3[C@H](CN2C(=O)[C@@H](NC(=O)C(F)F)C(C)(C)C)C3(C)C)C(=O)N1		human hepatocytes	scaled to liver		intrinsic clearance	< 8.9 mL/min/kg
CC(C)(O)c1ncc([S@](N)(=O)=NC(=O)Nc2c3c(cc4c2CCC4)CCC3)s1		healthy human subjects	oral, 100 mg, all arms total		subjects with gastrointestinal adverse events	50%
C=C(NC(=O)c1csc(-c2nc3c(cc2O)-c2nc(cs2)C(=O)NC(C(C)O)C(=O)NC(=C(C)OC)c2nc(cs2)C(=O)NC2c4nc(cs4)C(=O)NC(COC(=O)c4c5c6c(cccc6n4O)COC(=O)C(OC4CC(C)(O)C(N(C)C)C(C)O4)C2OC5)c2nc-3cs2)n1)C(N)=O (centres unmarked)		ICR mice, Streptococcus pneumoniae ATCC 49169 infected, immunocompromised, blood	intravenous, 4 mg/kg/day twice daily		MRT(0-t)	3.2 h
CCCCN1C(=O)c2cccc3c(NCCCCN4CCOCC4)ccc(c23)C1=O		dichloromethane			fluorescence quantum yield	0.33
CN1CCC[C@]1(C)/C=C/S(=O)(=O)NC(=O)Nc1c2c(cc3c1CC(O)C3)CCC2 (some centres unmarked)		human, plasma	oral, 12.5 mg twice daily of parent drug, day 1, metabolite of dosed drug		AUC(0-tau)	6600 ng·h/mL
O=C(Nc1cnccc1-c1ccc([18F])nc1)c1ccnc(NC(=O)C2CC2)c1		FVB/NJ mice, both sexes, liver	intravenous, 15 min, median, P-gp inhibitor pretreatment, together with: tariquidar 15 mg/kg iv		SUV	8.68
CC(C)C[C@H](NC(=O)[C@H](CCCNC(=N)N)NC(=O)[C@H](Cc1ccccc1)NC(=O)[C@H](Cc1ccccc1)NC(=O)[C@@H](NC(=O)[C@H](CO)NC(=O)[C@H](CO)NC(=O)[C@H](CC(=O)O)NC(=O)[C@H](CO)NC(=O)[C@H](CO)NC(=O)[C@H](CC(=O)O)NC(=O)[C@H](CO)NC(=O)[C@H](CO)NC(=O)[C@H](CC(=O)O)NC(=O)[C@H](CO)NC(=O)[C@H](CO)NC(=O)[C@H](CC(=O)O)NC(=O)[C@H](CO)NC(=O)[C@H](CO)NC(=O)[C@H](CC(=O)O)NC(=O)[C@H](CO)NC(=O)[C@H](CO)NC(=O)[C@H](CC(=O)O)NC(=O)[C@H](CO)NC(=O)[C@H](CO)NC(=O)[C@H](CC(=O)O)NC(=O)[C@H](CO)NC(=O)[C@H](CO)NC(=O)[C@@H](N)CC(=O)O)[C@@H](C)O)C(=O)N[C@@H](Cc1ccccc1)C(=O)N[C@@H](CC(N)=O)C(=O)N[C@@H](CCCNC(=N)N)C(=O)N[C@@H](C)C(=O)N[C@@H](CCCCN)C(=O)N[C@@H](CCCNC(=N)N)C(=O)N[C@@H](Cc1c[nH]cn1)C(=O)N[C@@H](Cc1c[nH]cn1)C(=O)NCC(=O)N[C@@H](Cc1ccc(O)cc1)C(=O)N[C@@H](CCCCN)C(=O)N[C@@H](CCCNC(=N)N)C(=O)N[C@@H](CCCCN)C(=O)N[C@@H](Cc1ccccc1)C(=O)N[C@@H](Cc1c[nH]cn1)C(=O)O	HPLC-UV	human saliva	1 h, 37 °C, together with: initial 1 mg/mL		peptide concentration	0.987 mg/mL
CN1CCC[C@]1(C)/C=C/S(=O)(=O)NC(=O)Nc1c2c(cc3c1CCC3)CC=C2		human, plasma	oral, 50 mg twice daily of parent drug, metabolite of dosed drug	reference: day 14 over day 1	AUC(0-tau) accumulation ratio	1.9

Some of these lines once more:
Compound	test	test system	conditions	how to read	quantity	result
CC(C)[C@H](NC(=O)[C@H](Cc1c[nH]c2ccccc12)NC(=O)[C@H](CCCNC(=N)N)NC(=O)[C@H](CCCNC(=N)N)NC(=O)[C@@H](NC(=O)[C@@H](NC(=O)[C@H](CCCNC(=N)N)NC(=O)[C@@H](NC(=O)[C@@H](NC(=O)[C@H](CCCNC(=N)N)NC(=O)[C@H](CCCNC(=N)N)NC(=O)[C@@H](NC(=O)[C@H](Cc1c[nH]c2ccccc12)NC(=O)[C@H](CCCNC(=N)N)NC(=O)[C@H](CCCNC(=N)N)NC(=O)[C@@H](NC(=O)[C@H](CCCNC(=N)N)NC(=O)[C@H](CCCNC(=N)N)NC(=O)[C@@H](NC(=O)[C@H](Cc1c[nH]c2ccccc12)NC(=O)[C@H](CCCNC(=N)N)NC(=O)[C@@H](N)CCCNC(=N)N)C(C)C)C(C)C)C(C)C)C(C)C)C(C)C)C(C)C)C(C)C)C(=O)N[C@@H](CCCNC(=N)N)C(=O)N[C@@H](CCCNC(=N)N)C(=O)O		CD-1 mice	intravenous, 15 mg/kg, 6-24 h		urinary creatinine	7 mg/dL
COC(=O)[C@@]1(C(C)C)C=C(C(=O)Nc2cccc(C(=O)Nc3ccc(Nc4nccc(-c5cccnc5)n4)c(C)c3)c2)C(=O)CC1		rat, plasma	10 µM, 10 min		compound remaining	103%
C=CC(=O)Nc1cc(Nc2nccc(-c3cn(C)c4ccccc34)n2)c(OC)cc1N(C)CCNC	storage stability	human plasma	5 h, -80 °C, low QC level		recovery	94.5%
C=C(NC(=O)c1csc(-c2nc3c(cc2O)-c2nc(cs2)C(=O)NC(C(C)O)C(=O)NC(=C(C)OC)c2nc(cs2)C(=O)NC2c4nc(cs4)C(=O)NC(COC(=O)c4c5c6c(cccc6n4O)COC(=O)C(OC4CC(C)(O)C(N(C)C)C(C)O4)C2OC5)c2nc-3cs2)n1)C(N)=O (centres unmarked)		ICR mice, Streptococcus pneumoniae ATCC 49169 infected, immunocompromised, blood	intravenous, 4 mg/kg/day twice daily		MRT(0-t)	3.2 h
CC[C@H](C)[C@H](NC(=O)[C@H](CCCCN)NC(C)=O)C(=O)N[C@@H](C)C(=O)N[C@@H](C)C(=O)N[C@@H](CC(C)C)C(=O)N[C@@H](CCCCN)C(=O)N[C@@H](CCC(=O)O)C(=O)N[C@@H](CCCCN)C(=O)N[C@H](C(=O)N[C@@H](C)C(=O)N[C@@H](C)C(=O)N[C@@H](CC(C)C)C(=O)N[C@@H](CCCCN)C(=O)N[C@@H](CCC(=O)O)C(=O)N[C@@H](CCCCN)C(=O)N[C@H](C(=O)N[C@H]1CSCc2ccc(cc2)CSC[C@@H](C(=O)NCC(=O)N[C@@H](Cc2c[nH]c3ccccc23)C(N)=O)NC(=O)[C@H](CCCCN)NC(=O)[C@H](CC(C)C)NC(=O)[C@H](C)NC1=O)[C@@H](C)CC)[C@@H](C)CC	circular dichroism thermal melting	PBS	pH 7.4, single peptide 50 µM total		melting temperature	26 °C
